Experimental data from different studies.
Compare with care: the assays were run in different laboratories. ± gives the spread as reported.

| SMILES | tested on | test | system | conditions | endpoint | result |
| --- | --- | --- | --- | --- | --- | --- |
| Cc1cc(/C=C/C#N)cc(C)c1-n1cnc2cnc(Nc3ccc(C#N)cc3)nc21 | HIV-1 | viral replication, single-round infection | RT mutant Y181C | – | EC50 | 0.0065 ± 0.0002 µM |
| O=C(NCc1ccc(F)cc1F)c1c(O)c2cccnc2n(O)c1=O | HIV-1 | viral replication | infected cells, integrase N155H mutant | – | EC50 | 0.031 ± 0.008 µM |
| Cc1cc(C)cc(S(=O)(=O)c2c(C(=O)NC3CC4(C3)CN(Cc3n[nH]c(=O)[nH]3)C4)[nH]c3ccc(Cl)cc23)c1 | HIV-1 | viral replication | MT-4, K103N mutant | – | EC50 | 0.056 ± 0.005 µM |
| Cc1cc(/C=C/C#N)cc(C)c1Nc1nc(Nc2ccc(C#N)cc2)ncc1N | HIV-1 | viral replication, single-round infection | RT mutant K101E/M184V | – | EC50 | 0.0007 ± 0.0001 µM |
| CCCCCCCCCCCCCCCC(=O)N[C@@H](CCC(=O)NCCOCCOCCC(=O)NCCOCCOCCC(=O)NCCCC[C@H](NC(=O)[C@H](CC(=O)O)NC(=O)[C@H](CC(C)C)NC(=O)[C@H](Cc1ccc(O)cc1)NC(=O)[C@H](CCCCN)NC(=O)[C@H](CO)NC(=O)[C@H](Cc1ccc(O)cc1)NC(=O)[C@H](CC(=O)O)NC(=O)[C@H](CO)NC(=O)[C@@H](NC(=O)[C@H](Cc1ccccc1)NC(=O)[C@@H](NC(=O)CNC(=O)[C@H](CCC(N)=O)NC(=O)[C@@H](CO)NC(=O)[C@@H](N)Cc1c[nH]cn1)[C@@H](C)O)[C@@H](C)O)C(=O)N[C@@H](CCCNC(=N)N)C(=O)N[C@@H](CCCNC(=N)N)C(=O)N[C@@H](C)C(=O)N[C@@H](CCC(N)=O)C(=O)N[C@@H](CC(=O)O)C(=O)N[C@@H](Cc1ccccc1)C(=O)N[C@H](C(=O)N[C@@H](CCC(N)=O)C(=O)N[C@@H](Cc1c[nH]c2ccccc12)C(=O)N[C@@H](CC(C)C)C(=O)N[C@@H](CC(C)C)C(=O)N[C@@H](CC(N)=O)C(=O)N[C@H](C(=O)NCC(=O)NCC(=O)N1CCC[C@H]1C(=O)N[C@@H](CO)C(=O)N[C@@H](CO)C(=O)NCC(=O)N[C@@H](C)C(=O)N1CCC[C@H]1C(=O)N1CCC[C@H]1C(=O)N1CCC[C@H]1C(=O)N[C@@H](CO)C(N)=O)[C@@H](C)O)C(C)C)C(=O)O | – | – | rhesus monkey, male, plasma | subcutaneous, 20 µg/kg, day 1, toxicokinetics, mean | AUC(0-t) | 136 ng·h/mL |
| CC(C)N1CCn2cc(C(=O)NCc3ccc(F)cc3F)c(=O)c(O)c2C1=O | HIV-1 | viral replication, single-round vector infection | IN E138K/G140A/Q148K | – | EC50 | 0.391 ± 0.0227 µM |
| Cc1cccc(-c2cc(C#N)cc(Oc3c(C(F)(F)F)ccn(Cc4n[nH]c(=O)n4C)c3=O)c2)c1 | HIV-1 | viral cytopathicity | MT4, L100I mutant | – | EC50 | 0.024 ± 0.0049 µM |
| CC(C)n1ccn2cc(C(=O)NCc3ccc(F)cc3F)c(=O)c(O)c2c1=O | HIV-1 | viral replication, single-round vector infection | IN G140A/Q148K | – | EC50 | 0.208 ± 0.0612 µM |
| Cc1cc(C)cc(S(=O)(=O)c2c(C(N)=O)[nH]c3ccc(Cl)cc23)c1 | HIV-1 | viral replication | MT-4, Y188L mutant | – | EC50 | 1.1 ± 0.63 µM |

For quick reference, copied from above:
| SMILES | tested on | test | system | conditions | endpoint | result |
| --- | --- | --- | --- | --- | --- | --- |
| Cc1cc(/C=C/C#N)cc(C)c1-n1cnc2cnc(Nc3ccc(C#N)cc3)nc21 | HIV-1 | viral replication, single-round infection | RT mutant Y181C | – | EC50 | 0.0065 ± 0.0002 µM |
